Measurements collected from several papers.
A part holds a random share of what one study measured.
Chain of UniProt P14921 (whole entry, unmodified, looked up): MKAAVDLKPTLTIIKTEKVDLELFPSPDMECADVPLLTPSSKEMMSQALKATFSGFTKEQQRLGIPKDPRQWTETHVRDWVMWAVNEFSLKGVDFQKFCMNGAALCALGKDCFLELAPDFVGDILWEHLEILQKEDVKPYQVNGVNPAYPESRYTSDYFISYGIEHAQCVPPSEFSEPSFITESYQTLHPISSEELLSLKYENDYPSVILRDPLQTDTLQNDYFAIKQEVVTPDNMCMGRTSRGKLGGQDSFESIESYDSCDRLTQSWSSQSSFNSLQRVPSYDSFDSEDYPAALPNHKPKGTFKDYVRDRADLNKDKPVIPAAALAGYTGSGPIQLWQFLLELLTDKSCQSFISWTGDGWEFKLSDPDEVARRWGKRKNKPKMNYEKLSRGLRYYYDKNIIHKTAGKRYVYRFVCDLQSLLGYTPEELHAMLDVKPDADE
Chain of UniProt P16220 (whole entry, looked up): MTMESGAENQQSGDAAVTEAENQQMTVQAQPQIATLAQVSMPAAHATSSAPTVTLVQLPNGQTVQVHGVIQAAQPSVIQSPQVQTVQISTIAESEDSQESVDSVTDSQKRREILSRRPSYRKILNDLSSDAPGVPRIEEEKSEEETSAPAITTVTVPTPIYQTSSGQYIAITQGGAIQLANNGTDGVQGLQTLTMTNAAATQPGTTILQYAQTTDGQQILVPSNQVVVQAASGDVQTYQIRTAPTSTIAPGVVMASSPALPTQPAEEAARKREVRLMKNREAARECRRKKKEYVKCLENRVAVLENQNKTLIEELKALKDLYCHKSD

Block 1
Target: Replicase polyprotein 1ab, main protease (rep, Severe acute respiratory syndrome coronavirus 2, UniProt P0DTD1)
Observed: enzyme activity
Mode: inhibitor
Concentration: 20 µM
Notes: hit confirmation, with DTT
Structure (SMILES)	inhibition [%]
COc1cc(C[C@@H]2NCCc3cc(O)c(O)cc32)cc(OC)c1OC	-5.6
COc1ccc2nc(S)[nH]c2c1	15.9
CC(Cc1ccc(O)c(O)c1)C(C)Cc1ccc(O)c(O)c1 (stereo not shown)	1.3
CCN(CC)C(=S)SSC(=S)N(CC)CC	36.1

Block 2
Cell line: HEK-293T/ACE2
Concentration: 10 µM
Time: 16 h
Relative to: vehicle
Compound	viability
C[C@]12CC[C@H]3[C@@H](CCC4=CC(=O)CC[C@@]43C)[C@@H]1CC[C@@H]2O	101%
CC1(C)O[C@@H]2C[C@H]3[C@@H]4CCC5=CC(=O)C=C[C@]5(C)[C@@]4(F)[C@@H](O)C[C@]3(C)[C@]2(C(=O)CO)O1	103%
C#Cc1cccc(Nc2ncnc3cc(OCCOC)c(OCCOC)cc23)c1	99.3%

Block 3
Target: Centromere-binding protein 1, full length, His-tagged (CBF1, Saccharomyces cerevisiae, UniProt P17106, residues 1-351)
Chain of UniProt P17106 (whole entry, looked up): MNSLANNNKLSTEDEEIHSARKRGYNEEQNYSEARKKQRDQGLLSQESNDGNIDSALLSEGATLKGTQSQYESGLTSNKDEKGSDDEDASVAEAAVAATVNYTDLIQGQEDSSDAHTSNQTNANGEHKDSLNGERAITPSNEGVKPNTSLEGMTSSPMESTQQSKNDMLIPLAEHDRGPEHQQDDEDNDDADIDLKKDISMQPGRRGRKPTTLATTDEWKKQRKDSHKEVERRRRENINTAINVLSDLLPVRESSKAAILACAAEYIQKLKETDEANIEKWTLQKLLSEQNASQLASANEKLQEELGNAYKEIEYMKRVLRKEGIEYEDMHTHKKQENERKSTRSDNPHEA
Technique: competition protein-binding microarray
Form: double-stranded DNA, one strand shown
Sample: in vitro
Concentration: 2 µM
Notes: whole 60-bp probe, lowest competitor level
Added: Pho4 competitor, 0.05 µM
Direction: higher = stronger binding
Shared flanks, not repeated: … GTCTTGATTCGCTTGACGCTGCTG
Oligonucleotide	fluorescence intensity
AAATTACTAAGTTGTCACGACACTTACCCCGTATGA	225 a.u.
TTTCCTCTTGAGATGGACGTGCTTTAGCCGGCCGGA	61.3 a.u.
TATTTTGGAGTTAGGGTTGTGATGCTTGACGATAAC	77.1 a.u.
TGGTTGCCAGCTCGCTATGTGACGGGCTTAAAGTAC	69.6 a.u.
ACCTAGAAATCGAGTCACGTGACGAAAATAAACAAG	35100 a.u.
CTAACGAAGGTTTTTCACGTGACATACAAGCCAAGT	5330 a.u.
AGTAATAGATCTCGGCACGTGGCCGCATTGACTCCG	1540 a.u.
TGTACACATAATGGACACGTTTAACAATTAGTGAGC	153 a.u.

Block 4
Target: Replicase polyprotein 1ab, polymerase (rep, Severe acute respiratory syndrome coronavirus 2, UniProt P0DTD1)
Observed: enzyme activity
Mode: inhibitor
Concentration: 20 µM
Compound	inhibition [%]
CC(=O)NCCC(=O)N[C@@H](Cc1cnc[nH]1)C(=O)O	-1.36
O=c1[nH]cnc2c([C@@H]3N[C@H](CO)[C@@H](O)[C@H]3O)c[nH]c12	-5.09
CCCC(CCC)C(N)=O	0.75
Cc1[nH]nc(C(F)(F)F)c1Cc1sc2c(c1C(=O)N1C[C@](C)(O)CO1)c(=O)n(C)c(=O)n2C(C)C	-0.35
C[C@]12CCC(=O)C=C1CC[C@@H]1[C@@H]2[C@@H](O)C[C@@]2(C)[C@H]1CC[C@]2(O)C(=O)COC(=O)CCC(=O)O	30.1
CC(=O)Nc1ccc(CC(=O)O)cc1	22.1
Cc1cc(-c2cc(OC(=O)c3ccccc3)ccc2Cl)cc2nnc(Nc3ccc(OCCN4CCCC4)cc3)nc12	1.97
COc1ccc([C@@H]2CC(=O)c3c(O)cc(O)cc3O2)cc1O	-3.24
CN1CCC(COc2cnc(-c3cccc(Cn4nc(-c5cccc(C#N)c5)ccc4=O)c3)nc2)CC1	0.97
Oc1ccc(OC2CCCCO2)cc1 (stereo not shown)	-4.5
C[S+]([O-])CCCCN=C=S (stereo not shown)	0.24
CCCCOc1ccc(CC/C=C2\SC(=O)N(CCN)C2=O)cc1	2.46
O=C(O)c1ccccc1O	10.7
NC1=N[C@@]2(c3cc(NC(=O)c4ccc(F)cn4)ccc3F)COC[C@H]2CS1	-5.51
O=[N+]([O-])/N=C1\NCCN1Cc1ccc(Cl)nc1	-7.83
C[C@@H](c1nc(-c2ccc(C#N)cc2)cs1)[C@](O)(Cn1cncn1)c1ccc(F)cc1F	-5.23
CN1CCN(c2ncc(-c3cc(Cl)cc(Cl)c3Cl)c(N)n2)CC1	-6
CC(C)n1nnc2cc(C(=O)O)ccc21	-0.87
COc1cccc(OC)c1-c1ccc(C[C@H](NC(=O)c2c(Cl)cccc2Cl)C(=O)O)cc1	-0.99
O=C(O)C1=CCCN(CCOC(c2ccc(C(F)(F)F)cc2)c2ccc(C(F)(F)F)cc2)C1	-13.7
O=C(O[C@H]1[C@H](OC(=O)c2cccnc2)[C@@H](OC(=O)c2cccnc2)[C@H](OC(=O)c2cccnc2)[C@@H](OC(=O)c2cccnc2)[C@H]1OC(=O)c1cccnc1)c1cccnc1	-1.2
CCOc1cc2ncc(C#N)c(Nc3ccc(OCc4cccc(F)c4)c(Cl)c3)c2cc1NC(=O)/C=C/CN(C)C	-4.49
CC(C)CN(C[C@@H](O)[C@H](Cc1ccccc1)NC(=O)O[C@H]1CCOC1)S(=O)(=O)c1ccc(N)cc1	0.65
NC(=O)c1nc(F)cnc1O	2.79
Cc1ccccc1N(C)C(=O)c1ccc([S+]([O-])c2nccs2)c([N+](=O)[O-])c1 (stereo not shown)	-0.21

Block 5
Target: RNA binding protein fox-1 homolog 2, RRM domain, GST-SBP tag (RBFOX2, Homo sapiens, UniProt O43251-10, residues 100-194)
Technique: RNA Bind-n-Seq
Form: RNA
Sample: in vitro
Concentration: 365 nM
Notes: natural RNA segment, single round, ends assumed
Relative to: no-protein control
Direction: higher = stronger binding
Shared flanks, not repeated: GGGAGUUCUACAGUCCGACGAUC … UGGAAUUCUCGGGUGCCAA
Construct (chain): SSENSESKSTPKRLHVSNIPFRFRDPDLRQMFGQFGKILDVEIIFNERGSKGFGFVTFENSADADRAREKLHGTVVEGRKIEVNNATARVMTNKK
Oligonucleotide	RBNS enrichment (R)
GUUUGGGGCAGUGGGGAGCAAACCUAGAUAAGGACCUGUUUGGGGCAGCAGGGAGCAAAAUCUCCUUUAACAACCAAGCAGUUCCUCAUUCACAUCAACAGAGCGAGGCU	0.245
UCUGCAUGAAGGAUACAUCGUGGUGCCACAUGCUUUAAGCAAUUUAAACAAGAGAGAUAAGAGGAAAAUGCAACCACCACAUCUGACUUGCCCAAUGUAGACUUUCCUUU	1.26
AGUAAUACAAGCAAACAAGUGUCCGUUUUGAAUUCUGAUUUGUAAUCUGAAUACUAAACAUAUUAGACCCACCUGAAAAUAAUAUAGCCAAUUUCUAGGUAAUCUUACUG	0.272
UCUAAUCAAGCUAAUUGGUUACUGAAAUGACAUAUUUAUCCCAACUUCUGUACCUUUGCACAAACUCUACCCUCUGACCCUCCACUACCAUCAUACUGACACUCUUUUCC	1.72
UGGCACUGCUUUGCAUUGGAGUCAGUUGUAGUCCACAUAGCUGGCUGCAGAGAAAUCAGUCUUACCCAGCAAGGGGAAGGCACACACAAGUUUGCAGAAAGUGUCUCAGA	0.497
AGAAACUGAGUUAGGGCUUGAGUCAGCAUCCCAGUGCUUUUGUCUAGCUUGGUUCUGGGGUUGAGAAAGUGAAGUUUGGCUGCAAUAGCUCCUCAAGUUGGGUUUCAUUU	1
UGGCAGUAGGGUCAUGAUGUUGGGAAGGGUGUAGUGCCCUAGGUUGGUGACAGAAGGGACAGACACUUGUGCACAGGUGUCUUUGGUGAUGGGGUUUUUUUUUUUAUAAC	0.89
CAGGGGUUGAGACAGGCUUGGGUAAACAUUGUCACCCAAGCUUCAGCUCCUCCGGUUAUUUCCUUGCCACUGCCUGCCCGAGCCACUUCAAGCCUUAGGAACUGGCAGAC	0.702

Mixed results
Technique: protein-binding microarray
Form: double-stranded DNA, one strand shown
Sample: in vitro
Concentration: not given
Notes: k-mer, scored over probes, only values ≥0.25
Direction: higher = stronger binding
SOX2 HMG box: Transcription factor SOX-2, HMG box (SOX2, Homo sapiens, UniProt P48431, residues 19-118)
Chain of UniProt P48431 (19-118, looked up): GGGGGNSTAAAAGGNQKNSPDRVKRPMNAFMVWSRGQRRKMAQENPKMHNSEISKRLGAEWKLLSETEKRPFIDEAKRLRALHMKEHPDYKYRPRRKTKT
Oligonucleotide	target	E-score
ATTGACG	Cyclic AMP-responsive element-binding protein 1 (CREB1, Homo sapiens, UniProt P16220, residues 1-327, full length assumed)	0.304
ACAACAA	SOX2 HMG box	0.373
GTTTGCGA	Protein C-ets-1 (ETS1, Homo sapiens, UniProt P14921, residues 1-441, Y397A, full length assumed)	0.313
AATGCAC	SOX2 HMG box	0.252

Repeated from above (block 4):
Compound	inhibition [%]
CN1CCN(c2ncc(-c3cc(Cl)cc(Cl)c3Cl)c(N)n2)CC1	-6
CC(C)n1nnc2cc(C(=O)O)ccc21	-0.87
COc1cccc(OC)c1-c1ccc(C[C@H](NC(=O)c2c(Cl)cccc2Cl)C(=O)O)cc1	-0.99
O=C(O)C1=CCCN(CCOC(c2ccc(C(F)(F)F)cc2)c2ccc(C(F)(F)F)cc2)C1	-13.7
